Published values of several laboratories.
Each line is one published result; not all experiments were run side by side. Numbers after ± are the reported error.

SMILES	test	test system	setting	how to read	quantity	result
Cn1c(=O)oc2ccc(-c3ccc(CC(C#N)NC(=O)C4CNCCCO4)c(F)c3)cc21 (stereo not drawn)	item: blood triglycerides increased	human	40 mg single dose, fasted		subjects with TEAE	25%
C[C@H](NC(=O)[C@H](C)NC(=O)[C@H](CCCNC(=N)N)NC(=O)[C@H](CCCNC(=N)N)NC(=O)[C@H](CCCNC(=N)N)NC(=O)[C@H](C)NC(=O)[C@H](C)NC(=O)[C@H](CCCNC(=N)N)NC(=O)[C@H](CCCNC(=N)N)NC(=O)[C@H](CCCNC(=N)N)NC(=O)[C@H](CCCNC(=N)N)NC(=O)c1ccc2c(c1)C(=O)OC21c2ccc(O)cc2Oc2cc(O)ccc21)C(=O)N[C@@H](CCCNC(=N)N)C(=O)N[C@@H](CCCNC(=N)N)C(=O)N[C@@H](CCCNC(=N)N)C(=O)N[C@@H](C)C(=O)N[C@@H](C)C(=O)N[C@@H](CCCNC(=N)N)C(=O)N[C@@H](CCCNC(=N)N)C(=O)N[C@@H](CCCNC(=N)N)C(=O)N[C@@H](CCCNC(=N)N)C(=O)O		bovine cartilage explants	30 µM, 24 h, added: 1 x PBS		retained fraction	~99%
CC(C)c1cnc(-c2cc(Cl)ccc2F)cc1Nc1ccncc1C(=O)NC(CO)CO	item: Anemia	solid tumour patients	oral, dose not given, phase I monotherapy		treatment-related serious adverse events	4.8%
CCCCN1C(=O)c2cccc3c(NCCN4CCOCC4)ccc(c23)C1=O		water	pH 6	relative to: fluorescein/0.1 N NaOH	fluorescence quantum yield	0.22
CC[C@H](C)[C@H](NC(=O)[C@H](CC(C)C)NC(=O)[C@H](Cc1c[nH]c2ccccc12)NC(=O)[C@H](C)NC(=O)[C@@H](NC(=O)[C@H](Cc1ccccc1)NC(=O)[C@H](CC(=O)O)NC(=O)[C@H](CCCNC(=N)N)NC(=O)[C@H](C)NC(=O)[C@H](C)NC(=O)[C@H](CC(C)C)NC(=O)[C@H](C)NC(=O)[C@H](CC(=O)O)NC(=O)[C@H](CC(C)C)NC(=O)[C@@H](NC(=O)[C@@H](NC(=O)[C@H](C)NC(=O)[C@H](CC(C)C)NC(=O)[C@H](CCC(=O)O)NC(=O)[C@H](CO)NC(=O)[C@H](CO)NC(=O)[C@H](Cc1ccccc1)NC(=O)[C@@H](NC(=O)CNC(=O)[C@H](CCC(=O)O)NC(=O)CNC(=O)[C@@H](N)Cc1c[nH]cn1)[C@@H](C)O)[C@@H](C)O)[C@@H](C)CC)[C@@H](C)CC)C(=O)N[C@@H](C)C(=O)N[C@H](C(=O)N[C@@H](CCCCN)C(=O)N[C@H](C(=O)N[C@H](C(=O)N[C@@H](CC(=O)O)C(=O)N[C@@H](CCCCN)C(=O)N[C@@H](CCCCN)C(=O)O)[C@@H](C)O)[C@@H](C)CC)[C@@H](C)O		healthy humans, plasma	subcutaneous, 5 or 10 mg glepaglutide once weekly, after sixth dose	relative to: glepaglutide plus metabolites	share of total exposure	~7%
COC(=O)C(c1ccccc1Cl)N1CCC2SC(=O)C=C2C1 (stereo not drawn)	LC-MS/MS	human plasma extract	2 ng/mL spiked, 24 h, 4 °C, autosampler		measured concentration	2.2 ± 0.2 ng/mL
CCCCCCCCCCCCCCCC(=O)N[C@@H](CCCCN)C(=O)N[C@@H](CCCCN)C(=O)N[C@@H](CO)C(=O)N[C@@H](CCCNC(=N)N)C(=O)N[C@@H](C)C(=O)N[C@@H](CC(C)C)C(=O)N[C@@H](Cc1ccccc1)C(N)=O		cynomolgus monkey, male	3 mg/kg, day 5		activated partial thromboplastin time	28.1 ± 1.4 s
COc1cc(N(C)CCN(C)C)c(NC(=O)CCSCC(NC(C)=O)C(=O)O)cc1Nc1nccc(-c2cn(C3CC3)c3ccccc23)n1 (stereo not drawn)	radio-HPLC	human, feces	dose not given, 0 to 48 h, sample holds 45.32% dose	relative to: sample radioactivity	share of radioactivity	2.45%
CC(=O)N[C@H](CCNC(=O)c1cc(NC(=O)c2cc(NC(=O)c3cc(NC(=O)c4nccn4C)cn3C)cn2C)cn1C)C(=O)Nc1cn(C)c(C(=O)Nc2cc(C(=O)Nc3cc(C(=O)Nc4cc(C(=O)NCCCN(C)CCCN[14C](=O)c5cccc([14C](=O)O)c5)n(C)c4)n(C)c3)n(C)c2)n1		BALB/c male mouse	intraperitoneal, 15 nmol per animal, 24 h		spleen concentration	0.32 mg/kg
CC[C@H](C)[C@H](NC(=O)[C@H](N)Cc1ccc(O)cc1)C(=O)N[C@H]1CSSC[C@@H](C(=O)N(C)[C@H](C(N)=O)[C@@H](C)CC)NC(=O)[C@H](CCCNC(=N)N)NC(=O)[C@H](Cc2c[nH]cn2)NC(=O)[C@H](C)NC(=O)CN(C)C(=O)[C@H](Cc2c[nH]c3ccccc23)NC(=O)[C@H](CC(=O)O)NC(=O)[C@H](CCC(N)=O)NC(=O)[C@H](Cc2cn(C)c3ccccc23)NC(=O)[C@H](C(C)C)NC1=O	UPLC-ESI-MS	human plasma	0.18 µg/mL, 48 h, 4 °C, autosampler after SPE		recovery	99.6 ± 0.3%
COCCOCCOCCOCCC(=O)NCc1cc(CNC(=O)CCOCCOCCOCCOC)cc(-c2cc3cc4nc(c(-c5ccc(CCC(=O)O)cc5)c5[nH]c(cc6nc(c(OC)c2[nH]3)CC6(C)C)cc5-c2cc(CNC(=O)CCOCCOCCOCCOC)cc(CNC(=O)CCOCCOCCOCCOC)c2)CC4(C)C)c1		water with 5% DMF	room temperature		Qy absorption maximum	726 nm
C=CC(=O)Nc1cc(Nc2nccc(-c3cn(C4CC4)c4ccccc34)n2)c(OC)cc1NC	radio-HPLC, co-eluting peaks pooled	human male, feces	oral, 110 mg, 0 to 240 h, sample holds 81.99% dose	relative to: sample radioactivity	share of radioactivity	1.15%
Cc1ccc(OCC(=O)O)cc1		male Sprague-Dawley rat, plasma	intravenous, 1.0 mg/kg of parent drug	relative to: compound over parent drug	AUC(0-last) ratio	2.5
COC(=O)c1ccc2c(c1)NC(=O)/C2=C(\Nc1ccc2c(c1)CCN2C(=O)CN1CCOCC1)c1ccccc1		cynomolgus monkey, plasma	intravenous, 2 mg/kg		AUC(0-t)	2.03 µg·h/mL
CCCC(CCC)NC(=O)c1ccc(OC2OC(C(=O)O)C(O)C(O)C2O)c(O)c1 (stereo not drawn)	LC-MS extracted ion chromatogram	Sprague-Dawley rat, male and female, pooled plasma	oral, 200 mg/kg, 1 h		peak area	1.52e+06 cps
Brc1ccccc1-c1nnc(CSc2nnnn2-c2ccccc2)o1		mouse C57BL/6J male, plasma	intraperitoneal, 10 mg/kg	relative to: plasma Cmax over CRFBP-CRF2 IC50	Cmax over IC50	4.8 fold
COC(=O)C(c1ccccc1Cl)N1CCC(SCC(=O)c2cccc(OC)c2)C(=CC(=O)O)C1 (mixture of isomers)	HPLC-MS/MS	feline citrate plasma	100 ng/mL, 24 h, 4 °C, storage stability		deviation from nominal	-2%
CC(C)(O)c1ncc([S@](N)(=O)=NC(=O)Nc2c3c(cc4c2CCC4)CCC3)s1		healthy human, fed	oral, 50 mg twice daily, day 14, tablet formulation, geometric mean		Cmax	8.52 µg/mL
O=C(O)CN1Cc2cccc(n2)CN(CC(=O)O)Cc2cccc(n2)C1	UV-vis spectrophotometric titration, item: HL/L- equilibrium	MeOH/water with NaCl	50 µM, room temperature, NaCl 0.1 M, MeOH ≤20% v/v		pKa4	8.18
CCN(CC)c1ccc2c(-c3ccc(S(=O)(=O)NCCNC(=O)CN4CCN(CC(=O)[O-])CCN(CC(=O)O)CCN(CC(=O)[O-])CC4)cc3S(=O)(=O)[O-])c3ccc(=[N+](CC)CC)cc-3oc2c1.[64Cu+2]	microPET imaging	athymic nude mice, U-87 MG glioma xenograft	250 µCi, 0.5 h post-injection		tumour uptake	6.06 ± 0.07 %ID/g
CCc1cc(Nc2nc(-c3ccc(-n4cnc(C)c4)c(F)c3)cs2)c(C)cc1C		human, plasma	oral, 400 mg, day 1, multiple dose, geometric mean		apparent clearance (CL/F)	30400 mL/h

SMILES	test	test system	setting	how to read	quantity	result
CC/C=C\C/C=C\C/C=C\C/C=C\C/C=C\CCCCOC(CC)C(=O)O (stereo not drawn)	[14C] label	male Wistar rat, urine	oral, 100 mg/kg	relative to: dose	excreted radioactivity	60%
CC1=CC(C)(C)N=C2C=CC(=O)C=C12	LC-MS/MS	Holstein cattle, subcutaneous fat	oral in feed, 50 mg/kg complete feed ethoxyquin, 42 days		highest tissue residue	14.1 ng/g
CNC(=O)N[C@]1(C)CCC[C@@]2(C)C3CC[C@@]4(C)C[C@]3(CCC21)CC4=O (single isomer, unassigned)		processed rat plasma	400 ng/mL, 24 h, room temperature, autosampler stability		measured concentration	445 ± 27.3 ng/mL
C[N+](C)(C)CCO.O=C(O)[C@H](O)Cc1ccccc1.O=C([O-])[C@H](O)Cc1ccccc1	thermogravimetric analysis		5% mass loss, nitrogen		decomposition temperature	199 °C
CC(C)C[C@@H](NC(=O)[C@H](NC(=O)[C@H]1CCCN1)[C@H](C)O)C(=O)N[C@H](Cc1c[nH]cn1)C(=O)N[C@@H](C(=O)N[C@H](Cc1c[nH]cn1)C(=O)N[C@H](CC(N)=O)C(=O)N[C@H](CCCNC(=N)N)C(=O)N[C@H](CCCNC(=N)N)C(=O)N[C@H](CCCNC(=N)N)C(=O)N[C@H](CCCNC(=N)N)C(=O)N[C@H](CCCNC(=N)N)C(N)=O)[C@H](C)O		Beagle dog, plasma	oral, 50 mg/kg single dose, from mean plasma levels		beta half-life	2.9 h
COc1ccc2cc(-c3ccc(-c4ccc(C)cn4)nc3)oc2c1	TCSPC	DMSO			radiative decay rate constant	0.46 ns⁻¹
COCCOCCOCCOCCOCCOCCOCCOCCC(=O)NCCCc1cc2cc3nc(cc4[nH]c(cc5nc(c(OC)c1[nH]2)C(=O)C5(C)C)cc4CCc1ccc(C(=O)O)cc1)CC3(C)C		DMF	room temperature		Qy absorption FWHM	22 nm
O=C(CCc1ccc(CNC(C(=O)O)C2CCCCC2)cn1)NO (stereo not drawn)		human, plasma	oral, 20 mg once daily, day 1, geometric mean		AUC(0-t)	0.0978 µg·h/mL
COCCOCCOCCOc1ccc(/C=C/c2c(I)c(C)c3n2[B-](F)(F)[N+]2=C(C)C(I)=C(C)C2=C3c2cc(OC)cc(OC)c2)cc1		dichloromethane			Stokes shift	384 cm⁻¹
COc1cc(NC(C)=O)c2c(c1O)-c1c(OC)c(OC)cc3c1C(C2)N(C)CC3 (stereo not drawn)		rat lung homogenate	50 µg/mL, 40 d, -20 °C, long-term storage		remaining compound	89.1 ± 4.5%
CCOc1c(C(C)(C)O)sc2cnc(Nc3ccc(N4CCC(N5CC6(COC6)C5)CC4)cc3OC)nc12	microelectrode	male New Zealand rabbit, isolated Purkinje fibres	30 µM, pacing 3 Hz		APD90 change	no effect
CCCCCCCCCCCCCCCCCC(=O)Nc1ccn(C2OC(CO)C(O)C2(F)F)c(=O)n1 (stereo not drawn)		mouse	iv bolus, 30 mg/kg gemcitabine equivalent		Vss	23.9 ± 1.6 mL
CC1=C(/C=C/C(=O)N2CCN(C(N)=O)CC2)C(C)(C)CCC1		female mouse, plasma	oral, 40 mg/kg, single dose		half-life	1.21 h
N=C(N)NCCC[C@@H]1NC(=O)[C@H](Cc2c[nH]c3ccccc23)NC(=O)[C@@H](CC2CCCCC2)NC(=O)[C@@H]2CCCN2C(=O)[C@@H](NC(=O)CCc2ccccc2)CCCNC1=O		C57BL/6J mice, brain	oral, 1 mg/kg, two-compartment model		apparent total clearance (CL/F)	0.75 ng/(min·ng/g)
O=C(O)c1cc2cc(O)ccc2n1Cc1ccc(Cl)c(C(F)(F)F)c1		male Wistar Hannover rat, serum	oral, 500 mg/kg, single dose, peak range		ALT	70 to 335 U/L
O=C1c2sc(-c3ccc(N4CCC(F)C4)nc3F)nc2CCN1c1cccnc1 (stereo not drawn)	PET imaging	rhesus monkey, whole brain		relative to: peak over 60 min	brain washout ratio	5.4
COc1cc(-c2nc3ccccc3s2)cc(CN(Cc2ccccn2)Cc2ccccn2)c1O	UV-vis spectrophotometric titration	MeOH-water, MeOH up to 20%	50 µM, 0.1 M NaCl, HL to L-		pKa4	10.4
CCCC[C@H](NC(=O)[C@H](CC(C)C)N(C)C(=O)CNC(=O)[C@@H](NC(=O)[C@H](Cc1ccccc1)NC(=O)[C@H](CCCCN)NC(=O)[C@@H](N)CC(=O)O)C(C)C)C(N)=O		anesthetized Gottingen minipig	subcutaneous, 1 µg/kg	relative to: baseline	mean arterial pressure	-0.62 ± 0.42%
Cc1cnc(Nc2ccc(OCCOc3ccc(/N=N/c4ccc(C(=O)NCCC(=O)O)cc4)cc3C(=O)O)cc2)nc1Nc1cccc(S(=O)(=O)NC(C)(C)C)c1		C57BL/6 mouse, female, colon tissue	oral, 10 mg/kg, 0.5 to 24 h		concentration	< 2 ng/g
CCCC(CCC)NC(=O)c1ccc(O)c(O)c1	LC-MS	Sprague-Dawley rat, both sexes, rat liver microsomes	10 µM of parent drug, 20 min, pH 7.4, added: NADPH	relative to: parent drug at time zero	metabolite peak area	29.9%
C=CC(=O)OCCCCCCOC(C)(C)O[C@H]1C[C@H]2OC[C@@]2(OC(C)=O)[C@H]2[C@H](OC(=O)c3ccccc3)[C@]3(O)C[C@H](OC(=O)[C@H](O)[C@@H](NC(=O)c4ccccc4)c4ccccc4)C(C)=C([C@@H](OC(C)=O)C(=O)[C@]12C)C3(C)C		phosphate buffer, 40% acetonitrile	50 µM, pH 5.0, 37 °C		hydrolysis half-life	0.617 h

For quick reference, copied from above:
SMILES	test	test system	setting	how to read	quantity	result
COc1ccc2cc(-c3ccc(-c4ccc(C)cn4)nc3)oc2c1	TCSPC	DMSO			radiative decay rate constant	0.46 ns⁻¹
CCCC(CCC)NC(=O)c1ccc(OC2OC(C(=O)O)C(O)C(O)C2O)c(O)c1 (stereo not drawn)	LC-MS extracted ion chromatogram	Sprague-Dawley rat, male and female, pooled plasma	oral, 200 mg/kg, 1 h		peak area	1.52e+06 cps
CC1=CC(C)(C)N=C2C=CC(=O)C=C12	LC-MS/MS	Holstein cattle, subcutaneous fat	oral in feed, 50 mg/kg complete feed ethoxyquin, 42 days		highest tissue residue	14.1 ng/g
O=C1c2sc(-c3ccc(N4CCC(F)C4)nc3F)nc2CCN1c1cccnc1 (stereo not drawn)	PET imaging	rhesus monkey, whole brain		relative to: peak over 60 min	brain washout ratio	5.4
